{"data": "Experimental data from different studies", "note": "Parts stem from different laboratories: compare values within a part only. Changes are numbered by the printed parent chain."}
{"data": "Study 1", "target": "Fragile X messenger ribonucleoprotein 1, C-terminal low-complexity region (Fmr1, Mus musculus, UniProt P35922)", "technique": "RNA Bind-n-Seq", "form": "RNA", "medium": "in vitro", "concentration": "200 nM", "notes": "whole 134-nt RNA, ends assumed", "with": "150 mM KCl", "baseline": "input library", "reading": "higher = stronger binding"}
{"Strand": "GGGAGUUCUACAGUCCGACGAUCCCUCAAGUCCUGUGCUACACAUCGUAUGUACCGAAUCGGGGUGGUGGGGUGGGAAAGUAUUAUGUUACGCCGUUCGGAUCUGCACUUCCAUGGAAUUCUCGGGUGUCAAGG", "log2 enrichment": 1.01}
{"Strand": "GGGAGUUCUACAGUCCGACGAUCAGUCCUGUGCUACACAUCGUAUGUACCGAAUCGGGUUUUGGGGUUUUGGGGUUUUGGGAAAGUAUUAUGUUACGCCGUUCGGAUCUGCACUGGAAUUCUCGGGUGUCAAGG", "log2 enrichment": 0.489}
{"Strand": "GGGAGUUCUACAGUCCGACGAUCCUCAAGUCCUGUGCUACACAUCGUAUGUACCGAAUCGGGUUGGGGUUGGUUGGAAAGUAUUAUGUUACGCCGUUCGGAUCUGCACUUCCAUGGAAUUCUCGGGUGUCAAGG", "log2 enrichment": 0.327}
{"Strand": "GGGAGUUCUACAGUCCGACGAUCUUACACCAAUGAGAAGCUGCAGCAGCUCUUCAACCACACCAUGUUCAUCCUGGAGCAGGAGGAGUACCAGCGCGAGGGCAUCGAGUGGAAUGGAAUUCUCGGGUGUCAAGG", "log2 enrichment": -0.67}
{"Strand": "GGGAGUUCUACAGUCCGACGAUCUGGGAGGUGGAUUUUGUUUAUUUUUUUAGCUCAUUUCCAGGGGUGGGAAUUUUUUUUUAAUAUGUGUCAUGAAUAAAGUUGUUUUUAAAAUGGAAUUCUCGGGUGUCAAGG", "log2 enrichment": 0.288}
{"Strand": "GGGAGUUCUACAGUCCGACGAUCUUUUAAUUUGUUUGUCUCUCAUGAAACUAUGGUCUUUUAAAAAUUAAAGGUUUUUUUUUUCCCCUUAGACGAAACUGCAAAGGAAAUCCGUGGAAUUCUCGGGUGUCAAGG", "log2 enrichment": -0.251}
{"Strand": "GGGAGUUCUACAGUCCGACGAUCGUCCUGUGCUACACAUCGUAUGUACCGAAUCGGGUUUUUUUGGGAAAGGGAAAAAGGGAAAGUAUUAUGUUACGCCGUUCGGAUCUGCACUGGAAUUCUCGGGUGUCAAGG", "log2 enrichment": -0.356}
{"Strand": "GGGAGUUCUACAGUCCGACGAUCCAAGUCCUGUGCUACACAUCGUAUGUACCGAAUCGGGGCCCGGCCCGGGGCCCGGGAAAGUAUUAUGUUACGCCGUUCGGAUCUGCACUUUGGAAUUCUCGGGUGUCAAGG", "log2 enrichment": -0.824}
{"Strand": "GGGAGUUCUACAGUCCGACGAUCCCUGUGCUACACAUCGUAUGUACCGAAUCGGGGCCCCCCGGGGCCCCCCGGGCCCCCCGGAAAGUAUUAUGUUACGCCGUUCGGAUCUGCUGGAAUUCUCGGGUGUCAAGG", "log2 enrichment": -0.981}
{"data": "Study 2", "target": "JUN, bZIP domain (human)", "technique": "DHFR protein complementation", "medium": "yeast", "notes": "single substitutions, most at no-binding floor", "baseline": "wild-type JUN-FOS pair", "reading": "higher = stronger binding", "starting sequence": "JUN, bZIP domain (human); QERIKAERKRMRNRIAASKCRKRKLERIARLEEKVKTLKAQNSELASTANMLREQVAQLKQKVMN; partner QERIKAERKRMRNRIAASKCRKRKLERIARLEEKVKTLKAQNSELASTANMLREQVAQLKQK"}
{"Change": "S47M", "binding fitness [natural log]": -0.205}
{"Change": "I28Y", "binding fitness [natural log]": -0.981}
{"Change": "A40F", "binding fitness [natural log]": -0.425}
{"Change": "V35W", "binding fitness [natural log]": -1.01}
{"Change": "E54M", "binding fitness [natural log]": -0.519}
{"Change": "A57T", "binding fitness [natural log]": -0.209}
{"Change": "A57I", "binding fitness [natural log]": -0.451}
{"Change": "K34A", "binding fitness [natural log]": -0.0906}
{"Change": "Q55I", "binding fitness [natural log]": -0.503}
{"Change": "E44C", "binding fitness [natural log]": -0.634}
{"Change": "N42Q", "binding fitness [natural log]": -0.292}
{"Change": "V56A", "binding fitness [natural log]": -0.643}
{"Change": "E32A", "binding fitness [natural log]": -0.334}
{"Change": "A29R", "binding fitness [natural log]": -0.139}
{"Change": "A29I", "binding fitness [natural log]": -0.271}
{"Change": "L31A", "binding fitness [natural log]": -1.18}
{"Change": "T37A", "binding fitness [natural log]": -0.0972}
{"Change": "M51S", "binding fitness [natural log]": -0.197}
{"Change": "S43D", "binding fitness [natural log]": -0.0133}
{"Change": "E33R", "binding fitness [natural log]": -0.314}
{"Change": "R30M", "binding fitness [natural log]": -0.167}
{"Change": "K34H", "binding fitness [natural log]": -0.0589}
{"Change": "Q58S", "binding fitness [natural log]": -0.111}
{"Change": "K36M", "binding fitness [natural log]": -0.161}
{"data": "Study 3", "target": "RING finger protein unkempt homolog, zinc fingers 1-6, GST-SBP tag (UNK, Homo sapiens, UniProt Q9C0B0, residues 30-357)", "technique": "RNA Bind-n-Seq", "form": "RNA", "medium": "in vitro", "concentration": "not given", "notes": "RNA with constant flanks, human-mouse chimeric sites, ends assumed", "baseline": "input RNA pool", "reading": "higher = stronger binding", "UniProt Q9C0B0, sequence (30-357, looked up)": "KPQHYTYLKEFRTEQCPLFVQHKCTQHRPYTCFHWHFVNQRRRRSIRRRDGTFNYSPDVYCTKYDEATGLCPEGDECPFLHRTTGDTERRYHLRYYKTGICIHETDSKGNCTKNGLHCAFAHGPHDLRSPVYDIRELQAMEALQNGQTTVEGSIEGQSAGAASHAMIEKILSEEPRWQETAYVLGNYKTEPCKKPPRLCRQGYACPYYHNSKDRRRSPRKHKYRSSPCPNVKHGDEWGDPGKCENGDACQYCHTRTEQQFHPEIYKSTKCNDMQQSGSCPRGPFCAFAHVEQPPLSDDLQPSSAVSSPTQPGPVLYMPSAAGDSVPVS"}
{"Strand": "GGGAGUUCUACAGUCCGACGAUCCUGGCACUCUAUCAGAUAUAUUAAUUUUUUAAUGUAGAUGUAAUUUUAAAAAUGAAUGGCUACUUUACACGUUUAACUAGGGUUUUACUACAUAUGUGUACAUAUGUAUAUGUAUUUAUACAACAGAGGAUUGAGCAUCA", "bound/input enrichment [ratio]": 7.55}
{"Strand": "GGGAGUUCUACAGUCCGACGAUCCCCCAAUACCAUUUGCAAGAGUUGGAAUGCACUCUCUUUUUUAAAAAACAUGUAUACAUUUUAGGGCUGUAGAUUUACUUUCCUAUUUUUGUUUUUCAUUGCUGACUUUUGAGCACAGAACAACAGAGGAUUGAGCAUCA", "bound/input enrichment [ratio]": 0.969}
{"Strand": "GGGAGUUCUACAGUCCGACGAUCUUCAAAGAAAAGGGCAGCUGUGUCAUUUCAUAAGUAAAACUGCAUCCGGGAAAUUCUGUUCUUUUGUUUAAUUUUCCCCCAAAUGAAACCAACAUGCGUGUUGAAGAACUGAGAAAAAAUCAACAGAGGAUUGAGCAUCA", "bound/input enrichment [ratio]": 0.179}
{"Strand": "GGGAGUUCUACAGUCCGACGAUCUGGCGCCUGCGCUCCCCACUCGUGUUUGUAUUUUUAUUUUUAUAAGAUACAUGUAUUUACAAUUGAGUUUUUGAUUAAUAAUGCUGAAAUGCUACUGGAGAUUAUGAAAAAUGUUUCAAUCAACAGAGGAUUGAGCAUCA", "bound/input enrichment [ratio]": 0.29}
{"Strand": "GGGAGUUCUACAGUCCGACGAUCGAUGAUAAUCACACAAAUGUGGCACUUUUACAUGACCAGCCUUGGGAUUCUUUUCCUGAUUAAUAUUCUCCCUGGAACCACUAGCCAAGGGGAAUCAAGACGACAAGAACCCGGGGACUUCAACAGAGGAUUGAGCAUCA", "bound/input enrichment [ratio]": 0.159}
{"Strand": "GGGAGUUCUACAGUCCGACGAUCUCUGGCCACACUCGUGUGUAUGGUGUUUGCUUUGUGGACACUUCACUGGGCAAGUUUUUCAUCGGCCAGUUUUCGGAUGACCGCCACUGUUCCAGAUUUAGGACGCUAGUGGCACACUAUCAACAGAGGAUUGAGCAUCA", "bound/input enrichment [ratio]": 0.137}
{"Strand": "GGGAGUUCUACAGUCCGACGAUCCUCAUGGCUGCAGAAACAGGAAGUGGAAAAACUGGUGCUUUUAGUAUUCCAGUUAUCCAGAUAGUGUAUGAAACUCUGAAAGACCAACAGGAAGGAAAGAAAGGGAAAACAACUAUUAAACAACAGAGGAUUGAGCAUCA", "bound/input enrichment [ratio]": 0.573}
{"Strand": "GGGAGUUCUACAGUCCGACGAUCGUUGCCAGCUUCCGGUUCCGUUGGGCUAGCAAGCUCCCUGAGCUACGGUCCCUGGCACUCUCAAUCCGCCAUCCAACAAACAUGGAUCAGGUAAUGCAGUUUGUGGAGCCCAGCCGGCAGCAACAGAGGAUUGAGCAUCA", "bound/input enrichment [ratio]": 0.107}
{"data": "Study 4", "target": "RNA binding protein fox-1 homolog 2, RRM domain, GST-SBP tag (RBFOX2, Homo sapiens, UniProt O43251-10, residues 100-194)", "technique": "RNA Bind-n-Seq", "form": "RNA", "medium": "in vitro", "concentration": "365 nM", "notes": "natural RNA segment, single round, ends assumed", "baseline": "no-protein control", "reading": "higher = stronger binding", "Residues (chain)": "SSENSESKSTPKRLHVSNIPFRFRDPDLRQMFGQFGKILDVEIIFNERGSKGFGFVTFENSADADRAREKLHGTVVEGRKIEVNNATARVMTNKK"}
{"Strand": "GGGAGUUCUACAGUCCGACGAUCCUAAGAAAGCUGAACAAAGGGAGAGACGAGAGCGCCUGAAGCCAGGAGCUCCUUUACUAUCUUUCUCAAAAGGGUUGUUAGACACAAACCAAGUCAUCAAGGCCCCGCUCUGGAAUUCUCGGGUGCCAA", "RBNS enrichment (R)": 0.284}
{"Strand": "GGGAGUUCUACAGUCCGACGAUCUUUGGAAGAGAGUUUUUCAUCUUAGAGAUUGGUGAACAAGUGUGAGGGUGUGAGAAACUCACAGAAUACAAAUUUGCCUGUAUGUUUUGUGGGUUUUUUUUUUUCCUUUCUGGAAUUCUCGGGUGCCAA", "RBNS enrichment (R)": 1.15}
{"Strand": "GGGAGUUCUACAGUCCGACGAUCAAAACACUUCUGACCCAUAGCUCAGUAUGUCUGAAUUCCAGAGGUCACAUCAGCAUCUUUCUGCUUUGAAAACUCUCACAGCUGUGGCUGCUUCACUUAGAUGCAGUGAGUGGAAUUCUCGGGUGCCAA", "RBNS enrichment (R)": 0.361}
{"Strand": "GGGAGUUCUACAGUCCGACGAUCGUUAUAAUGAAUGCUUCUAUUUAAAAGGGAAAUAUUUCUACAUGUGCAUAUAGUUUUCCAAGAGUGUACCAUUAACUUGAUUGUUGAUAAUAAAAACAAAAAGCAAGUCUUGGAAUUCUCGGGUGCCAA", "RBNS enrichment (R)": 1.16}
{"Strand": "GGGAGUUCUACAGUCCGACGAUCUUAAAAGUUUACAAAAUUUUUUUUUUUGUUUUGAGACAGAGUAUGGCUUUGUUACCCAGGCUGGAUUGCAAUGGGGUGAUCUAGGCUCACUGCAGCCUCCACCACCUGAGUGGAAUUCUCGGGUGCCAA", "RBNS enrichment (R)": 0.474}
{"Strand": "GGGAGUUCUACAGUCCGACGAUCCAGUACUACAAAGUACAGAAAUUCCUAGAAUAUAAUCAUUCUCACAGAAUAGAUACCAAGAAAAAGCUAUCUAUUAGGUUUCUAAUUCCAGGACCUAGAUAGACAAGUACUGGAAUUCUCGGGUGCCAA", "RBNS enrichment (R)": 0.513}
{"Strand": "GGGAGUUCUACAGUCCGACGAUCCUAGUAAAAAAUAACCCAGCAGUAAAUAAUAAAGAAAUUACUGAAUGAGAGGAUAAUGAAUCUGAAUCAUAGCAGGAAUUUGCAAUAUUAAUUAUGGUUAGCUAUUUUUCUGGAAUUCUCGGGUGCCAA", "RBNS enrichment (R)": 0.471}
{"Strand": "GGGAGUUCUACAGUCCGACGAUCAAUAUAGUUAUCUCUACCACUUUCUUUUCUAGUUUCUUGAUUUUCAGCUCAGGCUGCAUUCUAACUCAUACUGUGAAGACAAAGGUGUUUUUGAUUCAGAAAUAUAUGAAUGGAAUUCUCGGGUGCCAA", "RBNS enrichment (R)": 0.399}
{"note": "Some of these lines once more (study 2):"}
{"Change": "E54M", "binding fitness [natural log]": -0.519}
{"Change": "A57T", "binding fitness [natural log]": -0.209}
{"Change": "A57I", "binding fitness [natural log]": -0.451}
{"Change": "K34A", "binding fitness [natural log]": -0.0906}
{"Change": "Q55I", "binding fitness [natural log]": -0.503}
